Results of several laboratories.
Numbered parts are unrelated; each lists some results of a single study. “And” joins repeats or separate records; there may be more than shown. ± gives the spread as reported.
Chain of UniProt P35372 (whole entry, looked up): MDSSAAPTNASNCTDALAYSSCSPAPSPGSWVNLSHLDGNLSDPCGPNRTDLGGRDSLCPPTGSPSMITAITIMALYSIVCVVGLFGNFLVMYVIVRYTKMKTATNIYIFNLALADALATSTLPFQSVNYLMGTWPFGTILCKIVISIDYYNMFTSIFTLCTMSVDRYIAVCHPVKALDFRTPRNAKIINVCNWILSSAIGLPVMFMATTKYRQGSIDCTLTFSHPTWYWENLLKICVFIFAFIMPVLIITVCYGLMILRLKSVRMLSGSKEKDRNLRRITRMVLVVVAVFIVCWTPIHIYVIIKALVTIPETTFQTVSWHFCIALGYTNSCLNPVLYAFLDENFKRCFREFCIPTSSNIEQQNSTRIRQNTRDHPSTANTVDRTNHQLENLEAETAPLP
Chain of UniProt P05177 (whole entry, looked up): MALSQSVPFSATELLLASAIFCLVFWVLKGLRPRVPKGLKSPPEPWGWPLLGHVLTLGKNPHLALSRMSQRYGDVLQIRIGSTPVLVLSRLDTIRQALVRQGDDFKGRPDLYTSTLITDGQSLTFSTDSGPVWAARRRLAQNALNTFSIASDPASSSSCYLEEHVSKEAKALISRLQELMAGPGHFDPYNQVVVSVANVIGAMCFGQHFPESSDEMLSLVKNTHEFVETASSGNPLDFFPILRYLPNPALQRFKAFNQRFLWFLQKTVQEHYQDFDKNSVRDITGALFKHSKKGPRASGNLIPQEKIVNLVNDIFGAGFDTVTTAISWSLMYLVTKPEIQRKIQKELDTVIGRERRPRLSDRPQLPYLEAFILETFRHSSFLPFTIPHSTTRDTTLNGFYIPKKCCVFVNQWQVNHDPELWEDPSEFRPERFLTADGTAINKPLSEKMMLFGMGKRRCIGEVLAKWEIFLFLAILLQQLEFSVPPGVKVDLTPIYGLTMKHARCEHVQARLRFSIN
Chain of UniProt P10632 (whole entry, looked up): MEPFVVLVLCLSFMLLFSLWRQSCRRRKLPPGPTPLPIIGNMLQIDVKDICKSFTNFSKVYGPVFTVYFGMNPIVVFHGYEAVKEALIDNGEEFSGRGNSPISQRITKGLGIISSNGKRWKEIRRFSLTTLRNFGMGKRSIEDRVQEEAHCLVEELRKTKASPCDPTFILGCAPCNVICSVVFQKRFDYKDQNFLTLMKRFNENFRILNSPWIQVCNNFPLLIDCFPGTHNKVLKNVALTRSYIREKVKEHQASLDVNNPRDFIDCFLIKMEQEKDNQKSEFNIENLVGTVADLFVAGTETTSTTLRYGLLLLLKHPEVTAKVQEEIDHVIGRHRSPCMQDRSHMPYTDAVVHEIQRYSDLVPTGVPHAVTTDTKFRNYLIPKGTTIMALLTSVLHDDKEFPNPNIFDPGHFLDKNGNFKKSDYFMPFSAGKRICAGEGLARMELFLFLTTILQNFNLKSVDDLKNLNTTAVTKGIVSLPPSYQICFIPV
Chain of UniProt P20813 (whole entry, looked up): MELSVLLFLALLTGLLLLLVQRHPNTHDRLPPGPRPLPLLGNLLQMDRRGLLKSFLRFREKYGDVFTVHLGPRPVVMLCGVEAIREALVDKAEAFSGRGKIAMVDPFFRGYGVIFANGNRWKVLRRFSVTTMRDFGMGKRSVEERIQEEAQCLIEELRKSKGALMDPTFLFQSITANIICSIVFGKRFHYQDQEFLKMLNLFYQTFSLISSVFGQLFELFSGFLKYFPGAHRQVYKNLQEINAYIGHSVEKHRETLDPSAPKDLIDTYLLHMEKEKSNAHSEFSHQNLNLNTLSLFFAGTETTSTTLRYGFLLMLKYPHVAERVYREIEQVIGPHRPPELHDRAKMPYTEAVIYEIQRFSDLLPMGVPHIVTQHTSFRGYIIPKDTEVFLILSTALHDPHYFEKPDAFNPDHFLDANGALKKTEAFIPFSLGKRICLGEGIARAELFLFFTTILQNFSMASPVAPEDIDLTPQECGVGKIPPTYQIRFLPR
Chain of UniProt Q695T7 (whole entry, looked up): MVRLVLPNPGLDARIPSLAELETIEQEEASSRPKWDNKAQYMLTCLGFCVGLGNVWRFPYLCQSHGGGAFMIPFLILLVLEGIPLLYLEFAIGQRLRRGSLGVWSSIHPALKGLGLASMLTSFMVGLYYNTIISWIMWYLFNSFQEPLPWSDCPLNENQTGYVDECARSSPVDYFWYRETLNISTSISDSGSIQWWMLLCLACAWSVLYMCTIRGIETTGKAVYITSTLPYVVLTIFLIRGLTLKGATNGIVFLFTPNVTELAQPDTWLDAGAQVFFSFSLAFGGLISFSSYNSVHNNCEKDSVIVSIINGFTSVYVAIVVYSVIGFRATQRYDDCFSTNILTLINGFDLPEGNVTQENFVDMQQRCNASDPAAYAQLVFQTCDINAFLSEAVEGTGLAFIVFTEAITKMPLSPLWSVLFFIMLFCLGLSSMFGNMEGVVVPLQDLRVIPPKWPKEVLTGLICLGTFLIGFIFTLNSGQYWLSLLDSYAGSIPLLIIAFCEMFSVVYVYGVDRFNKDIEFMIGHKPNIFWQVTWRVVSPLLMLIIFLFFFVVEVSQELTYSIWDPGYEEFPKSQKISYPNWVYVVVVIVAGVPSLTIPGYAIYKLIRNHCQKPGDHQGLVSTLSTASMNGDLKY

Series 1 — observed: enzyme activity; matrix: human liver microsomes; reference: negative control
SMILES: Cn1cc(-c2cccc(CN3CCC4(CC3)COc3c4ccc4c3CN([C@H]3CCC(=O)NC3=O)C4=O)c2)cn1
CYP2D6: Cytochrome P450 2D6 (CYP2D6, Homo sapiens, UniProt P10635)
Chain of UniProt P10635 (whole entry, looked up): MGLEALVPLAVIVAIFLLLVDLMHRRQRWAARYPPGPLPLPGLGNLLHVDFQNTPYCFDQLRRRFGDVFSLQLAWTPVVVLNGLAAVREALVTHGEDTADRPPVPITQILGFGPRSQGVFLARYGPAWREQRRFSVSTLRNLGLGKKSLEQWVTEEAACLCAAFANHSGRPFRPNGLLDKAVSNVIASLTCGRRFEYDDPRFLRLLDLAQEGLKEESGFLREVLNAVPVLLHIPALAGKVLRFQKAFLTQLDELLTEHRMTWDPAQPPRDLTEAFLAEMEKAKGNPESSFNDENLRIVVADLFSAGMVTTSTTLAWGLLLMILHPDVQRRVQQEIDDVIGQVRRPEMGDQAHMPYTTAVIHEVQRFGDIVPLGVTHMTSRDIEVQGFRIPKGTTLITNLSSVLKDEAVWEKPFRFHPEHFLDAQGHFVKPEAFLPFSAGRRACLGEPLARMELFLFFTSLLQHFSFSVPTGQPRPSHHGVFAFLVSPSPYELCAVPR
CYP3A4: Cytochrome P450 3A4 (CYP3A4, Homo sapiens, UniProt P08684)
Chain of UniProt P08684 (whole entry, looked up): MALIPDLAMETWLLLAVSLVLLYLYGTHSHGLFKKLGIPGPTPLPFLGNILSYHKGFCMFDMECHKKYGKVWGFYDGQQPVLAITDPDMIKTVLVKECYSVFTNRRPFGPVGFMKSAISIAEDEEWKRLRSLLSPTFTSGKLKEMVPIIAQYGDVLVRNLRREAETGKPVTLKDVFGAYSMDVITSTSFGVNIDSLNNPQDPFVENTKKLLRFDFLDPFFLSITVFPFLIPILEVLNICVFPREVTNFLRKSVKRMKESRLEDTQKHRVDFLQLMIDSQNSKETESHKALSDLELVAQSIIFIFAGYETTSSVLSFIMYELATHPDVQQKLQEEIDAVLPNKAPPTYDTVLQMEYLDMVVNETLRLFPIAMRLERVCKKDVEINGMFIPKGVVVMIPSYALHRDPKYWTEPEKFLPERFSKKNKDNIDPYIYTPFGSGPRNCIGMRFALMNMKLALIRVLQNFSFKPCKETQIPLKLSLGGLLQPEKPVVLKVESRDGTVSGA
CYP2C19: Cytochrome P450 2C19 (CYP2C19, Homo sapiens, UniProt P33261)
Chain of UniProt P33261 (whole entry, looked up): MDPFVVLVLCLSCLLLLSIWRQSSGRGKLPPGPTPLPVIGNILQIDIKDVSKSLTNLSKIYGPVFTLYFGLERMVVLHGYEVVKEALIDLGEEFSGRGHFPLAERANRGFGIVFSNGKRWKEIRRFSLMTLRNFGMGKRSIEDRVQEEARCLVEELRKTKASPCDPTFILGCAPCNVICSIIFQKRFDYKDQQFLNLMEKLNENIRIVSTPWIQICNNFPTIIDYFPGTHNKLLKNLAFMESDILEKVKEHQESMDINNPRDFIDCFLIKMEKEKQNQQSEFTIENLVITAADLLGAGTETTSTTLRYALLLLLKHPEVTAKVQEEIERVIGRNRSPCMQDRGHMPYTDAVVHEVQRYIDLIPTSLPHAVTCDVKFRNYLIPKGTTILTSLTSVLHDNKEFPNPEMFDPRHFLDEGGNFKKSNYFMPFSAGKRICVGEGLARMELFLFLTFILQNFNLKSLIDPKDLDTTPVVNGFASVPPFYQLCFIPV
It gave 100% for remaining activity (CYP2D6; 0.0137 µM).
It gave 104% for remaining activity (CYP3A4; 0.12 µM, added: midazolam substrate).
It gave 87.7% for remaining activity (Cytochrome P450 1A2 (CYP1A2, Homo sapiens, UniProt P05177); 0.37 µM).
For CYP3A4; 3.33 µM, added: testosterone substrate: remaining activity read 82.5%.
The remaining activity was 99.9% (CYP2C19; 0.37 µM).
It gave 108% for remaining activity (Cytochrome P450 2C8 (CYP2C8, Homo sapiens, UniProt P10632); 1.11 µM).
It gave 89.7% for remaining activity (Cytochrome P450 2B6 (CYP2B6, Homo sapiens, UniProt P20813); 0.0137 µM).
It gave 87.1% for remaining activity (CYP2C19; 10.00 µM).
CYP2D6; 0.12 µM — remaining activity: 103%.

Mixed results
For CC(C)OC(=O)[C@H](CCC(=O)C=[N+]=[N-])NC(=O)[C@H](Cc1c[nH]c2ccccc12)NC(=O)C12CCN(CC1)CC2, the DON concentration was 0 nmol/g (P493B lymphoma cells; P493B cells in human plasma; concentration not given, tumour cell fraction of partition).
The IC50 of O=[N+]([O-])c1ccc(C2=NOC3(NC(c4ccccc4)=NO3)N2c2ccccc2)cc1 (stereo not drawn) is reported as greater than 1000 µM (Plasmodium falciparum; parasite growth; SB1-A6 atovaquone-resistant; 72 h).
For C#CCN1C(=O)C(O)(C(=O)O)Oc2cc(F)ccc21 (stereo not drawn), “fresh weight inhibition” read 59.7% and 59% and 58.1% (Arabidopsis thaliana; 2-week-old plants; foliar spray, 200 µg/mL, 20 days, postemergence; reference: untreated).
With Cc1cc(-c2cnc(N)c3c(-c4ccc5scnc5c4)csc23)n(C)n1 the viability was 66.8% (L929; necroptosis protection, CCK-8; 15 µM, added: TNF-α-induced).
Under “log2 fold change”, CCN1/C(=C/C=C2\CCCC(/C=C/C3=[N+](CC)c4ccccc4C3(C)C)=C2NCCCCCCCCN2CCC(Nc3nc4ccccc4n3Cc3ccc(F)cc3)CC2)C(C)(C)c2ccccc21 is recorded as -1.58 (U-87 MG; item: MTBP mRNA; concentration not given; reference: DMSO).
CC(C)(C)n1nc(-c2ccc(Cl)cc2)c2c(N)ncnc21 has a viability of 80.1% and 66% and 79.7% and 80.8% (L929; CCK-8; 12.5 µM, added: zVAD).
N=C(N)NCCCCCCN1CCC23c4c5ccc(O)c4OC2c2nc4ccccc4cc2CC3(O)C1C5 (stereo not drawn) — result for “normalised specific binding”: 12.6% and 19.3% and 25.5% (OPRM1 (Homo sapiens, UniProt P35372); competitor, radioligand binding; 1 µM).
The viability of Cc1c(NC(=O)c2cccn(-c3ccc(F)cc3)c2=O)ccc(Oc2ccnc(NC(=O)C3CC3)c2)c1C is reported as 69.9% (L929; necroptosis protection, CCK-8; 0.625 µM, added: TNF-α-induced).
With CCCNC(=O)COc1ccc(Br)c(C)c1 the IC50 was 0.07 ± 0.01 µM (SLC6A19 (Homo sapiens, UniProt Q695T7); inhibitor, FLIPR membrane potential; CHO-BC; added: 1.5 mM L-leucine).
